Assay results collected from several papers.
Numbered parts are unrelated; each lists some results of a single study. Positions count from the first letter of the parent shown.

Study 1
Target: CCNE2, cyclin fold, Cln2 fusion (human)
Method: yeast growth competition, sequencing
Sample: yeast
Notes: weak parent motif
Baseline: not given
Direction: higher = stronger binding
Quantity: normalised enrichment score
Starting sequence: MICAL3 docking peptide (human); LQLRRQLSFSEDS; partner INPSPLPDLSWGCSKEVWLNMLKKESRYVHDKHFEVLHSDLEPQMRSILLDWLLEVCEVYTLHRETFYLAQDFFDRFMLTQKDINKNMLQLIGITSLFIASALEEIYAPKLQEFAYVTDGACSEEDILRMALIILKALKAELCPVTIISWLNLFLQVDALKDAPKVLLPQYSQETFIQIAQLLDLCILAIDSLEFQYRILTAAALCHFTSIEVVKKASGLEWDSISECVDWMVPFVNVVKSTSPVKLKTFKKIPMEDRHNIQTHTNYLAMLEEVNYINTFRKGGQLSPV
LQLRRFLSFSEDS [Q6F]: -0.114
LQLRRQLSFIEDS [S10I]: 0.406
LKLRRQLSFSEDS [Q2K]: 0.379
LMLRRQLSFSEDS [Q2M]: 0.116
LQLRRQRSFSEDS [L7R]: 0.0139
LQLRRQKSFSEDS [L7K]: 0.0973
LDLRRQLSFSEDS [Q2D]: 0.0757
LQLRWQLSFSEDS [R5W]: 0.209
LQLRRQQSFSEDS [L7Q]: 0.0257
LQLRRQLSESEDS [F9E]: 0.308
LQLRMQLSFSEDS [R5M]: 0.319
LQLREQLSFSEDS [R5E]: 0.044

Study 2
Target: Hepatocyte nuclear factor 3-alpha (Foxa1, Mus musculus, UniProt P35582, residues 1-468, full length assumed)
Chain of UniProt P35582 (whole entry, looked up): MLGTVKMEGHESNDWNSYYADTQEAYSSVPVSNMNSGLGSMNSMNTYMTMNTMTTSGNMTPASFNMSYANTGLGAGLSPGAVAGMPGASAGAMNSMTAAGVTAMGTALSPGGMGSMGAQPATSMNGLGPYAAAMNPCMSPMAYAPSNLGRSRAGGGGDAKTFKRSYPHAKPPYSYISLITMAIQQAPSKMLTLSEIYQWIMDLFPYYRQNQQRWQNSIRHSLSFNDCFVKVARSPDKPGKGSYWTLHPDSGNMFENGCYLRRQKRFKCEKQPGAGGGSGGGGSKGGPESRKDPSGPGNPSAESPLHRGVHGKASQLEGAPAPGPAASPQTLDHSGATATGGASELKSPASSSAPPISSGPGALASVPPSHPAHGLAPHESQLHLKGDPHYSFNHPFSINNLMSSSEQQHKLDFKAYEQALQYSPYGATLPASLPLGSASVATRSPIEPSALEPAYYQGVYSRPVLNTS
Method: EMSA with sequencing
Form: double-stranded DNA, one strand shown
Sample: in vitro
Tested at: 10 and 20 nM
Notes: whole designed probe, mean of two concentrations, ends assumed
Baseline: negative control set to 0
Direction: higher = stronger binding
Quantity: normalised bound fraction
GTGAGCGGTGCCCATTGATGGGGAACAATTTAGCCTAAGTCTGCCTCCTTACATATTAATATTTTAAGTTTGGCCTAAAGGTTTCCCCTTACAAAGTAAACTGCAGCCTAACTAGCTGTGTAATCTCACTATTCTTAACACCAATCACAGATTTTCAGCAAGTCACAGGAAGTCAGCTGTTAACAAACTTTAAATAAAGCAATCTCCAAGCTGTAAGCATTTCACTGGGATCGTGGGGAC: 0.0395 ratio
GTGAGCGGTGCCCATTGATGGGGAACATCTTCCCCCTCTTCCTTGCCCCACCAGCTCACCTTCCCGGGTATATTGGAGATAGTATTTATTTTCAAGCCGGCATTCGTTAACCCTCTTCTGGCGCAAACTGCTGTTTGCTCTGGATGAATCATGGTCCTTTGGCGACGCCAGGCTCCGGGAGAGCAAAGCACCGTGTCAGGGCCATGATCCGGGGTGGCCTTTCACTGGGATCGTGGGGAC: 0.184 ratio
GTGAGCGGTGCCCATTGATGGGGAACACGTTACAAGCACAGGGTGTACAGAAGCATTCCTGTTTCCATGAGTGAATCAACACAGCAATGCCCTACGTGCCAACAGAGCATGAGCTCATGTATTTACTCAACCTTGCTTTCTGTGTTAGAAAGAGCCCTGCATTAGGAAATCTGGACTCCCAGAGACAAAGGGTCACGCATGCCGGCCTCCTGACCTCAGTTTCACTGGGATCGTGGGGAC: 0.257 ratio
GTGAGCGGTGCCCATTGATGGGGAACCTGTTCCAGACCCTAGTCTTTCAATCTAATGTTTATACACAAATCTAGATTCAGATATCTATTTTGAATTTCATTTAGGTTTTTGTTTCTAAGTAATCTTCAGAGGATTAGTTTGGGTTTTGTTCACCCATGTCTTTTAAAGTTCTAAAGAACCTTTGTATCTAAGCTCAACTTTATATTTAAGTTCAACTGCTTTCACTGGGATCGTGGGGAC: 0.0362 ratio
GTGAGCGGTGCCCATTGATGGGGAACCACTAGCCAAGCAAATGCTACCTTTCCTAAATTACGCCGTGGTATTGTGTACGACAGCAGCAGGGTTGCTATTTTAAAATGGGATTGCGTAAAATAAACATGTGCCCAGATGCTAAGTTGATGAACAGGAAGTATTAATTGATGCTCTGGTACGGCCTCGTGCTTTCCAGTGCTTCCATTTGTGTGACGATCCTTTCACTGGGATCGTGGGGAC: 0.25 ratio

Study 3
Target: RNA binding protein fox-1 homolog 2, RRM domain, GST-SBP tag (RBFOX2, Homo sapiens, UniProt O43251-10, residues 100-194)
Method: RNA Bind-n-Seq
Form: RNA
Sample: in vitro
Tested at: 365 nM
Notes: natural RNA segment, single round, ends assumed
Baseline: no-protein control
Direction: higher = stronger binding
Quantity: RBNS enrichment (R)
Target sequence (chain): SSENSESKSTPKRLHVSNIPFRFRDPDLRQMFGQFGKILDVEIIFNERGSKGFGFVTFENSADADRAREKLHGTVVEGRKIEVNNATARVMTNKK
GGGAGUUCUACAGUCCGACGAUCAAUGAAAUUAGUGCCUGUUUUCUUGCAAAUUUAGCACUUGGAACAUUUAAAGAAAGGUCUAUGCUGUCAUAUGGGGUUUAUUGGGAACUAUCCUCCUGGCCCCACCCUGCUGGAAUUCUCGGGUGCCAA: 0.325
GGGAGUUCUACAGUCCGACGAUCAUCACCUGCAACUUAAAUGAACAAGCUUACAUCCCAUUUUGAGUGAAGAUUUUGAGGUUUUUAAUUUAAAGGCUGUGUACAGUUAUACUUUUUUAUACACCUGUUCAUUUUGGAAUUCUCGGGUGCCAA: 0.458
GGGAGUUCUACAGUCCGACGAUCCUUGAGGGCUGUGCCAAUCCUAGUGAACCAAAAUGCAAACAACUCACACAAGUGAAAAGCUCCCUGCUUUGAAAACAGGACAUGUUGACAGGCAGCAUGGUAUGUUUUUAUGGAAUUCUCGGGUGCCAA: 0.872
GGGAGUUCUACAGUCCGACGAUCCUUGUAUCAGAUCCAAAGCUCUAUUGUACAGCAAAUUAUUCUUCAAAAUGAUUAUAACCAGUUGCACCCUGUAUUUCUUUUUGCAGCCAGCACAAUGUGACCCAACUUAAUGGAAUUCUCGGGUGCCAA: 0.696
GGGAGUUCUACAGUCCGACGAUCUUUGUUCUUUCAUUUCUCCCAGCACUCACUUUCUGCCUGAGUCCGGUCCAAGGACUUUUACUUUGCGCUUCGUAACUACUGCCAGCUUCUCCUCUCCUGGCCCUGCUCCCUGGAAUUCUCGGGUGCCAA: 1.36
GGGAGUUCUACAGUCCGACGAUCAAGGUGGGCAGUCCAGGUUACAGUUGAUGAAGGAAACAGUGCCUGUCUGCCUCUCAUGUGUGACCCCAAGGCAGCCAGGCUGUCACUGCUGCUGUCACAGGCUGACACCUUGGAAUUCUCGGGUGCCAA: 0.628
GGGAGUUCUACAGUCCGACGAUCCAGUGAGGUGCCCAGAGCUGCACCCUUUCCUCCAUUUCCCAUCCCCCAUCUCCUCAACCACCAGGGUCUGAGUUCUAGCAGGGUCCUGGGGGUAUCCCACUGCUAUACUGUGGAAUUCUCGGGUGCCAA: 0.736
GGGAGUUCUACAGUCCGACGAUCGAGGGAGAGUGAAUUGUCGUGGAAAACUAGGGUCGAUUUCACGUACCUCUCGGGACAACUUUUAAAAGCUAUUUUUACCAAGUAUUUUGUAAAUGCUAAUUUUUUAGGACUGGAAUUCUCGGGUGCCAA: 0.393
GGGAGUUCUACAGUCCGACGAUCCCCCGAGUCCCUGCUGCUGCGCUCCUUUGCAUCCCUGGCCAGUGACCUUGUAUUUAUGAGGCCUCUGUGAGGCCAGCCCCCACCUUCCUCUUUCCCACCUGUCCCAGGACUGGAAUUCUCGGGUGCCAA: 3.2
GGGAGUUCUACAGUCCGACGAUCCCCAGGCCCAGAUUAGCCACUCGUUAGCUGUGUGACUGACUCUGGGCUAGUCACCUGGCCCCUGUGUGCCCCGUGUUCAUCUGUGAAAGGAGGUAAAAAAAAAAAAAUAUUGGAAUUCUCGGGUGCCAA: 0.372
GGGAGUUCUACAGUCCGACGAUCCUUUUCAGACUGGGGUGGGGGCUGAGCAUGCUUGUGCAGAAAGAAGCCAUAGCCAGAAAGGACAGAAUCUCUCCCCCACUCCCUUGCCCCAUAACCAAACAUAAGCUAGCUGGAAUUCUCGGGUGCCAA: 0.904
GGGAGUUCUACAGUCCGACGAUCAUGGGUACCCUAUGAUCCCCCUCCCCUUCUCCUCCAGUAAAUACCUGGAAGAGGGAACCUGAAUCCCUGGGGGAGACAGAAGGGGCAGGGGCCACCAGCCUCCCCUUCUUUGGAAUUCUCGGGUGCCAA: 0.261

Study 4
Target: Ras GTPase-activating protein-binding protein 1, full length (G3BP1, Homo sapiens, UniProt Q13283)
Chain of UniProt Q13283 (whole entry, looked up): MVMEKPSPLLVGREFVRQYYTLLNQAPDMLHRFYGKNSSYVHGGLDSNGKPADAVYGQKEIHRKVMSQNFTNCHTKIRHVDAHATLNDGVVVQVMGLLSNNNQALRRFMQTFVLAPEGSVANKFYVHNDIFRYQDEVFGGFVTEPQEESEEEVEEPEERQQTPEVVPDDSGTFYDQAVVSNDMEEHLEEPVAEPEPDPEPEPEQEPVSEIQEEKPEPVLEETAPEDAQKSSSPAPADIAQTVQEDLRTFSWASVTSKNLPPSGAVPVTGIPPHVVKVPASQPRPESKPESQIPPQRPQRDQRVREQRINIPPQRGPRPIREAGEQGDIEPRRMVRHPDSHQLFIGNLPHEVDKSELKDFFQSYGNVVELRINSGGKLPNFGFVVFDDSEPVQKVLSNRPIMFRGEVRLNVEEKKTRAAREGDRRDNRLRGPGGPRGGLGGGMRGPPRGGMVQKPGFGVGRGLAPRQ
Method: RNA Bind-n-Seq
Form: RNA
Sample: in vitro
Tested at: 200 nM
Notes: whole 134-nt RNA, ends assumed
With: 150 mM LiCl
Baseline: input library
Direction: higher = stronger binding
Quantity: log2 enrichment
All molecules: 7-deaza-guanosine replaces G
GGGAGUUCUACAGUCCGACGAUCAGUCCUGUGCUACACAUCGUAUGUACCGAAUCGGGGAAAAGGAAAAGGGGAAAAGGGAAAGUAUUAUGUUACGCCGUUCGGAUCUGCACUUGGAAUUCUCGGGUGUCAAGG: -0.591
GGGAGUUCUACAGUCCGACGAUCCUCAACGUUGACAGUAAUGAACAAGGCUCCUAUGUAGUGGCCAUGGAAACCUUUACCAACUUAGGACCCAUUGUCGAUAUGUGCGUGGUGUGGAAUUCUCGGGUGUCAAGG: -1.65
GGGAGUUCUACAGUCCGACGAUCCAAGUCCUGUGCUACACAUCGUAUGUACCGAAUCGGCCCGGGCCCGGGCCCGGGGAAAGUAUUAUGUUACGCCGUUCGGAUCUGCACUUCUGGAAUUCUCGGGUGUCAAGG: -1.38
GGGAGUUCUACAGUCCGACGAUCUCCUGUGCUACACAUCGUAUGUACCGAAUCGGGGAGGGGUUUUUUUGGGGUUUUUGGGGAAAGUAUUAUGUUACGCCGUUCGGAUCUGCAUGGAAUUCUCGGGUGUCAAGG: 0.89
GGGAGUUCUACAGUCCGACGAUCAGUCCUGUGCUACACAUCGUAUGUACCGAAUCGGGGUGGGGUUUUUGGGGUUUGGGGAAAGUAUUAUGUUACGCCGUUCGGAUCUGCACUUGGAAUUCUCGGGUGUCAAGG: -0.145
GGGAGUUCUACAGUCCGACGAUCUCCUCAAGUCCUGUGCUACACAUCGUAUGUACCGAAUCGGUGGUGGUGGGGAAAGUAUUAUGUUACGCCGUUCGGAUCUGCACUUCCAGCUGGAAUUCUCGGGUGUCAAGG: 0.485
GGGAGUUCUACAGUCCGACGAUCUCCUGUGCUACACAUCGUAUGUACCGAAUCGGGGCCCCCCGGGGCCCCCCGGCCCCCCGGAAAGUAUUAUGUUACGCCGUUCGGAUCUGCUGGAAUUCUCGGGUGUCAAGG: -0.172
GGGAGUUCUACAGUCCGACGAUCUCCUGUGCUACACAUCGUAUGUACCGAAUCGGAAAAAAGGGAAAAAAGGGAAAAAAGGGAAAGUAUUAUGUUACGCCGUUCGGAUCUGCAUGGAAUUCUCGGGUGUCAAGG: -0.262
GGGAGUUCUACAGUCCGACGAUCCACAGACAACACGCACCCACACAGACACAGAGGGAAAAGGUUGGGAUGGGGACAGGGUGCACAGCAGGGCGGGGUAGGACCCCAGCCCCUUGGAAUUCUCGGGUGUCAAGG: -1.52
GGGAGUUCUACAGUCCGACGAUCCCUCAAGUCCUGUGCUACACAUCGUAUGUACCGAAUCGGGUGGGGUGGGUGGGAAAGUAUUAUGUUACGCCGUUCGGAUCUGCACUUCCAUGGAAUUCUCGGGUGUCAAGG: -0.0769
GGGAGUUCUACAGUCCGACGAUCUUCCUUCCACGACCCCUGAAGAGCAGCGGUGGGUCUGAGCAUCCUAUCUCCAGGAAGCAGGCCAGCAGGCAAGCCAGCUGCCACCUCGUCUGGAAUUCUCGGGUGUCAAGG: 0.609

Study 5
Target: ABI1, truncated, D143A, DHFR fusion (Arabidopsis thaliana)
Method: DHFR PCA, deep sequencing
Sample: yeast
Notes: methotrexate growth selection, single substitutions
With: (+)-ABA 2500 µM
Baseline: wild-type fitted maximum
Direction: higher = stronger binding
Quantity: relative binding score
Starting sequence: PYL1, truncated, DHFR fusion (Arabidopsis thaliana); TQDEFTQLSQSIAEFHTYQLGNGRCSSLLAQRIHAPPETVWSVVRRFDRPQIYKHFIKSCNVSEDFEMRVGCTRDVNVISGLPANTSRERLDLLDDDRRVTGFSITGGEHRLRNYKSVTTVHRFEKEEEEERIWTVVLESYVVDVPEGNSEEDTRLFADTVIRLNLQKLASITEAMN; partner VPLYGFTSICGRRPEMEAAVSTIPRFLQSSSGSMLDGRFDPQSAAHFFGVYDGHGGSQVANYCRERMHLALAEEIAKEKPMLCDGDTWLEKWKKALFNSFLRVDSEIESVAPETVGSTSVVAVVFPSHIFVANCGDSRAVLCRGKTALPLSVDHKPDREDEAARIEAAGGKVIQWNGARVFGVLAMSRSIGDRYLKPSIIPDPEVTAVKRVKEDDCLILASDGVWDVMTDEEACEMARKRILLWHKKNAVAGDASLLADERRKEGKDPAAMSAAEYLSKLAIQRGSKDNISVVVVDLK
N85T: 99.6%
T135R: -7.91%
Q2K: 97.4%
V145D: 16.7%
F157M: 87.5%
Q19R: 102%
E4W: 96.3%
N177M: 94.3%
H16V: 37.4%
E38W: 96.5%
G148M: 85.4%

Repeated from above (study 5):
Q19R: 102%
G148M: 85.4%
T135R: -7.91%
N85T: 99.6%
N177M: 94.3%
